Assay results collected from several papers.
Each numbered part is a random draw from the data of one study; scales do not carry over between parts.

Sample 1 — technique: universal PBM; form: double-stranded DNA, one strand shown; medium: in vitro; tested at: not given; direction: higher = stronger binding; measurement: E-score
Target: Sal-like protein 4, full length isoform B (SALL4, Homo sapiens, UniProt Q9UJQ4-2, residues 1-616)
Setting: 8-mer, flanks averaged, mean of replicates
ATTCAACA: 0.123
CGAGCCCC: -0.287
CAATTGGC: 0.119
CGTTGACA: -0.112
ACTGGTAG: -0.0864
GGGCTCGA: -0.233
ACTTTGAC: 0.0226
AAAAGGCT: -0.121
ACATTGCC: -0.0717

Sample 2 — technique: protein binding microarray; form: double-stranded DNA, one strand shown; medium: in vitro; tested at: not given; relative to: not given; direction: higher = stronger binding; measurement: E-score
Target: Histone acetyltransferase KAT6A, winged helix 2, GST fusion (KAT6A, Homo sapiens, UniProt Q92794, residues 85-181)
Setting: 8-mer, flanks averaged, mean of 2 arrays, mostly near background
Residues (chain): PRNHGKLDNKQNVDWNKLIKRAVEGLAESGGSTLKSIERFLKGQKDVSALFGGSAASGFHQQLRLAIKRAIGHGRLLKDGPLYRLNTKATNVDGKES
CTGAATAA: -0.00994
CGAGTACA: 0.00375
CGAGTCGC: 0.0674
CACCGCCC: 0.202
GTCTGAAA: -0.00445
CCCTAGAG: 0.0675
ATACTGAA: 0.0465

Sample 3 — technique: RNA Bind-n-Seq; form: RNA; medium: in vitro; tested at: 20 nM; setting: 6-mer, flanks averaged, single round; added: 150 mM KCl; relative to: input library; direction: higher = stronger binding; measurement: 6-mer enrichment (R)
Target: TAR DNA-binding protein 43, full length, His tag (TARDBP, Homo sapiens, UniProt Q13148, residues 1-414)
AGAGCG: 1.6
UGUUCC: 0.617
GCUAUU: 0.639
UCCUCG: 0.604

Sample 4 — technique: Sort-seq; measured: YFP reporter; medium: E. coli; setting: PhoQ-PhoP variant library; added: 10 µM Mg2+; relative to: high Mg2+ state; direction: higher = stronger signaling; measurement: fold induction
Molecule: PhoQ, residues 284 288 289 292 302 303 SSLVEF
PhoP, residues 12 14 15 18 19 QQAYL (Escherichia coli, UniProt P23836): 5.62
PhoP, residues 12 14 15 18 19 LFHKL (Escherichia coli, UniProt P23836): 6.88
PhoP, residues 12 14 15 18 19 GMGLL (Escherichia coli, UniProt P23836): 2.77

Some of these lines once more (sample 1):
ACATTGCC: -0.0717
ACTTTGAC: 0.0226
CGAGCCCC: -0.287
CGTTGACA: -0.112
